Values quoted from earlier work as cited in several papers.
Numbered parts are unrelated; values within a part may stem from several laboratories. ± gives the spread as reported.

Block 1 — organism: Cryptosporidium parvum; method: high-throughput screen; concentration: concentration not given
| SMILES | activity |
| --- | --- |
| Cl.Cn1c(NCCN(CCO)CCCc2ccc([N+](=O)[O-])cc2)cc(=O)n(C)c1=O | inactive |
| CCN(CC)CC(=O)Nc1c(C)cccc1C | inactive |
| C[C@]12CCC(=O)C=C1CC[C@@H]1[C@@H]2[C@@H](O)C[C@@]2(C)[C@H]1CC[C@]2(O)C(=O)CO | inactive |
| CCC(=O)O[C@]1(C(=O)CCl)[C@@H](C)C[C@H]2[C@@H]3CCC4=CC(=O)C=C[C@]4(C)[C@@]3(F)[C@@H](O)C[C@@]21C | inactive |
| Cc1cccc(Nc2ccncc2S(=O)(=O)NC(=O)NC(C)C)c1 | inactive |
| C[C@]12CC[C@@H]3c4ccc(O)cc4CC[C@H]3[C@@H]1CC[C@@H]2O | inactive |
| CC[C@]1(O)C[C@@H]2CN(CCc3c([nH]c4ccccc34)[C@@](C(=O)OC)(c3cc4c(cc3OC)N(C)[C@H]3[C@@](O)(C(N)=O)[C@H](O)[C@]5(CC)C=CCN6CC[C@]43[C@@H]65)C2)C1 | inactive |
| Cc1c(C(=O)NN2CCCCC2)nn(-c2ccc(Cl)cc2Cl)c1-c1ccc(I)cc1 | inactive |
| COc1ccc([C@@H]2Sc3ccccc3N(CCN(C)C)C(=O)[C@@H]2OC(C)=O)cc1 | inactive |
| C[C@H](CCC(=O)O)[C@H]1CC[C@H]2[C@@H]3[C@@H](O)C[C@@H]4C[C@H](O)CC[C@]4(C)[C@H]3CC[C@]12C | inactive |
| COc1c2occc2cc2ccc(=O)oc12 | inactive |
| CN1CCC(=C2c3ccccc3CCc3sccc32)CC1.O=C(O)/C=C\C(=O)O | inactive |
| COc1nc(C)nc(Cl)c1NC1=NCCN1.Cl | inactive |
| CC(=O)/N=c1/sc(S(N)(=O)=O)nn1C | inactive |
| COc1ccccc1N1CCN(CCCNc2cc(=O)n(C)c(=O)n2C)CC1.Cl | inactive |

Mixed results
| Compound | tested on | test | system | setting | quantity | result |
| --- | --- | --- | --- | --- | --- | --- |
| COc1ccc(Cl)cc1C(=O)NCCc1ccc(S(=O)(=O)NC(=O)NC2CCCCC2)cc1 |  | NMR | phospholipid bilayer membrane |  | pKa | ~7 |
| CCS(=O)(=O)N1CC(CC#N)(n2cc(-c3ncnc4[nH]ccc34)cn2)C1 | bovine serum albumin |  |  | 308 K | binding constant | 2450 M⁻¹ |
| Cn1cncc1[C@](O)(COc1ccc(C#N)cc1-c1ccc(OC(F)(F)F)cc1)c1ccc(C#N)cc1 | FNTB | cellular activity |  |  | IC50 | 0.00073 µM |
| C=CC[C@@H]1/C=C(\C)C[C@H](C)C[C@H](OC)[C@H]2O[C@@](O)(C(=O)C(=O)N3CCCC[C@H]3C(=O)O[C@H](/C(C)=C/[C@@H]3CC[C@@H](O)[C@H](OC)C3)[C@H](C)[C@@H](O)CC1=O)[C@H](C)C[C@@H]2OC |  |  | healthy human subjects | oral, 5 mg single dose | half-life | 40.4 h |
| C[C@H]1CNC(=O)c2cnn3ccc(nc23)N[C@H](C)c2cc(F)ccc2O1 |  |  | human plasma | prescribing information | unbound fraction | 0.0467 |
| COc1ccc([C@@H]2Sc3ccccc3N(CCN(C)C)C(=O)[C@@H]2OC(C)=O)cc1 |  |  |  |  | pKa | 8.2 |
| CCCOc1ccc(S(=O)(=O)N2CCN(CCO)CC2)cc1-c1nc2c(CCC)cn(CC)c2c(=O)[nH]1 |  |  | healthy male volunteers | dose not given, without alcohol | diastolic blood pressure change | -6.4 mmHg |
| CN1CC(=O)N2[C@H](c3ccc4c(c3)OCO4)c3[nH]c4ccccc4c3C[C@@H]2C1=O |  |  | rat | oral, 1 mg/kg | Tmax | 0.625 ± 0.25 h |
| Cc1ccc2[nH]c(CNCCCc3ccncc3)cc(=O)c2c1 | DRD4 human |  |  |  | Ki | 7.5 µM |
| CNCC(=O)O | N-methyltryptophan oxidase wild type |  |  | bound to enzyme | pKa | 9.1 |
| CC(=O)O[C@H]1C(=O)[C@@]2(C)[C@H]([C@H](OC(=O)c3ccccc3)[C@]3(O)C[C@H](OC(=O)[C@H](O)[C@@H](NC(=O)c4ccccc4)c4ccccc4)C(C)=C1C3(C)C)[C@]1(OC(C)=O)CO[C@@H]1C[C@@H]2O |  |  | advanced esophageal cancer patients | 80 mg/m2 weekly, monotherapy | median time to progression | 3 months |
| COc1cc2oc(-c3ccc(O)c(O)c3)cc(=O)c2c(O)c1O | Hepatitis C virus | viral replication and release |  | concentration not given | inhibition | no inhibition |
| CN(C(=O)c1ccccc1)c1cc(N(C)c2ccc3c(c2)CCc2ccc(C(=O)NCCN4CCOCC4)cc2C3=O)ccc1F | MAPK14 | cell-based |  |  | IC50 | 11.3 µM |
| N=C(N)N |  |  |  | literature value | pKa | > 13 |
| O=c1c(O)c(-c2ccc(O)c(O)c2)oc2cc(O)cc(O)c12 | dengue virus 2 NS2B-NS3 protease | enzyme activity, inhibitor |  | pH 9.0 | IC50 | 35.2 ± 2.3 µM |

For quick reference, copied from above (block 1):
| SMILES | activity |
| --- | --- |
| C[C@]12CCC(=O)C=C1CC[C@@H]1[C@@H]2[C@@H](O)C[C@@]2(C)[C@H]1CC[C@]2(O)C(=O)CO | inactive |
| CCC(=O)O[C@]1(C(=O)CCl)[C@@H](C)C[C@H]2[C@@H]3CCC4=CC(=O)C=C[C@]4(C)[C@@]3(F)[C@@H](O)C[C@@]21C | inactive |
| COc1nc(C)nc(Cl)c1NC1=NCCN1.Cl | inactive |
| CCN(CC)CC(=O)Nc1c(C)cccc1C | inactive |
